# Measurements gathered from unrelated publications.
# Every numbered part comes from another study and shows a few of its results, in no order. Substitutions count along the parent as printed.

# Set 1
# Target: Histone acetyltransferase KAT6A, both winged helices, GST fusion (KAT6A, Homo sapiens, UniProt Q92794, residues 1-181)
# Technique: protein binding microarray
# Form: double-stranded DNA, one strand shown
# Matrix: in vitro
# Tested at: not given
# Setting: 8-mer, flanks averaged, mean of 2 arrays, mostly near background
# Reference: not given
# Reading: higher = stronger binding
# Construct (chain): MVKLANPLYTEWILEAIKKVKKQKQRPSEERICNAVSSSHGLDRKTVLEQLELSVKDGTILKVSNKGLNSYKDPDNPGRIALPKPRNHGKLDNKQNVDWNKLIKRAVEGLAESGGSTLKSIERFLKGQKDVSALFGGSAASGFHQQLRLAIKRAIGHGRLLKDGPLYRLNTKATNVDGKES
Strand,E-score
ATGCCGCA,0.202
CGCTCTAG,0.0989
CTCCGGCA,0.103
CTCTAGGC,0.0307
AAACACGT,-0.135
TACTGAGA,-0.0846
AAGGGGGT,-0.271
AGGGGCAG,-0.28
CTGTAGGC,-0.0859
ATAAGGAC,-0.00919
ATGGGGCC,-0.136
CAAAGCCC,-0.0744
GCCGAGGA,0.114
ACCTGACC,-0.0525

# Set 2
# Target: CCNE1, cyclin fold, Cln2 fusion (human)
# Technique: yeast growth competition, sequencing
# Matrix: yeast
# Setting: strong parent motif
# Reference: not given
# Reading: higher = stronger binding
# Parent: CDKN1A docking peptide (human); SKACRRLFGPVDS; partner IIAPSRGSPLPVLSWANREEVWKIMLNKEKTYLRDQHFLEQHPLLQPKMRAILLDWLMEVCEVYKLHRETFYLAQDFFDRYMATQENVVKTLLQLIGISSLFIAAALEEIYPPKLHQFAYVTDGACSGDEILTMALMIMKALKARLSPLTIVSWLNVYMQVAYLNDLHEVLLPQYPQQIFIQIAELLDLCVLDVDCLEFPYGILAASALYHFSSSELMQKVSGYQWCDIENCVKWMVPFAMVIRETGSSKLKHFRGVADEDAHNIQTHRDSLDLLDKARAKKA
Variant,normalised enrichment score
R5V,0.387
P10T,5.44
F8P,-0.0248
R5W,0.395
C4H,1.03
C4N,1.4
L7V,0.703
C4A,2.4
V11C,5.56
V11K,4.66
L7G,0.114
L7D,0.114
R5K F8L,0.0289
A3K,0.672

# Set 3
# Target: ABI1, truncated, D143A, DHFR fusion (Arabidopsis thaliana)
# Technique: DHFR PCA, deep sequencing
# Matrix: yeast
# Setting: methotrexate growth selection, single substitutions
# Together with: (+)-ABA 0.0091 µM
# Reference: wild-type fitted maximum
# Reading: higher = stronger binding
# Parent: PYL1, truncated, DHFR fusion (Arabidopsis thaliana); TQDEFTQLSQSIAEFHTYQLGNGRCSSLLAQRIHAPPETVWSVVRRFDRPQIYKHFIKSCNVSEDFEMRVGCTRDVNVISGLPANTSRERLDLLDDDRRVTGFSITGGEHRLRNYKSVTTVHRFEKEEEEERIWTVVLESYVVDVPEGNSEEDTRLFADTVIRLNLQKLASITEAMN; partner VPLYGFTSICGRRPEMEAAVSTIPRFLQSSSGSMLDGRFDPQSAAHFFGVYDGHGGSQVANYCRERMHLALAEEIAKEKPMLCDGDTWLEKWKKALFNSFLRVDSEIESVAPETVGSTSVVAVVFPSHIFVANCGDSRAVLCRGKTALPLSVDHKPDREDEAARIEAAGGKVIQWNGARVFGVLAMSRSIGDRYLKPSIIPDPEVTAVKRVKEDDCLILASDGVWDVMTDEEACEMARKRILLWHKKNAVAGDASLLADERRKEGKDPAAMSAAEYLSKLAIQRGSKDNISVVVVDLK
Variant,relative binding score [%]
I33L,-1.38
H34Q,42.9
N77I,49.2
A30G,6.78
T101S,-2.27
A170L,-7.92
K116W,0.461
F5Y,40.2
N61E,53
L29D,3.14
I133H,31.9
E14N,5.45
S42D,18.3
T135K,-11.7

# Set 4
# Target: Interferon regulatory factor 7, full length, phosphomimetic (IRF7, Homo sapiens, UniProt Q92985, residues 1-503, S101K/S471D/S472D/S475D/S476D/S477D/S483D/S484D/S487D)
# Technique: protein-binding microarray
# Form: double-stranded DNA, one strand shown
# Matrix: in vitro
# Tested at: 250 nM
# Setting: 60-bp whole probe
# Together with: salmon DNA 0.4 mg/ml
# Reference: random background probes
# Reading: higher = stronger binding
# All sequences stand within: GCCTAGCAC … GTCTTGATTCGCTTGACGCTGCTG
# Target sequence (chain): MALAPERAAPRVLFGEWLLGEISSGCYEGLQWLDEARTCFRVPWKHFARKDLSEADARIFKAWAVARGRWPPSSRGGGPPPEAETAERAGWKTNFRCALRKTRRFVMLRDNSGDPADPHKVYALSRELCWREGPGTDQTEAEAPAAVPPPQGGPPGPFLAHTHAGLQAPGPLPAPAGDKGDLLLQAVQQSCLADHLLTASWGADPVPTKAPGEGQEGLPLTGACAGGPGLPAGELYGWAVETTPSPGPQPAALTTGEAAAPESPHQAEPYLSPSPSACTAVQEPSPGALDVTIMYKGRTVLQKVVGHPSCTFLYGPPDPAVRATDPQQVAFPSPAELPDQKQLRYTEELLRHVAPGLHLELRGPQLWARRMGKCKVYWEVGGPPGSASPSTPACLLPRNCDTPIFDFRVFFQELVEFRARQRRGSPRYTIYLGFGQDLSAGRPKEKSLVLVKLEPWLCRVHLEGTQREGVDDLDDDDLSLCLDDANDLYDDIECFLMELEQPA
Strand,log fluorescence
TCAGGTATCGACTTTCGGTTAGTGCTA,3.2 z-score
TTAGTACTGGGTATCGGTTAGTGCTAG,0.987 z-score
GACTGTATCCTTCTCCTGACGTGCTAG,0.459 z-score
TTCGAACTGAGTTTCGATTAGTGCTAG,7.61 z-score
CCATTTTGGTTTTCTCTATTGGTGCTA,2.35 z-score
TCATTTTCATTTTCCAAACTGTGCTAG,4.22 z-score
GACGGTTTCCTTATCCGGACGTGCTAG,3.65 z-score
TCACATTTCCTTTACATACTGTGCTAG,1.68 z-score
TTAGGACTGGGGTATCGGTTAGTGCTA,0.197 z-score
TACGGTTTCGGTCTCGGGACGTGCTAG,7.73 z-score
TCACTTCCCAATAATCTTACTGTGCTA,1.41 z-score
GAGATGATCCAGTTTTACCTGGTGCTA,-0.418 z-score
TTAGAACTGCTTTTCCTTTAGTGCTAG,0.711 z-score
TACTGTCTGTTTCCTCTTTCTGTGCTA,1.22 z-score

# Set 5
# Target: Sal-like protein 4, full length isoform A (SALL4, Homo sapiens, UniProt Q9UJQ4, residues 1-1053)
# Chain of UniProt Q9UJQ4 (whole entry, looked up): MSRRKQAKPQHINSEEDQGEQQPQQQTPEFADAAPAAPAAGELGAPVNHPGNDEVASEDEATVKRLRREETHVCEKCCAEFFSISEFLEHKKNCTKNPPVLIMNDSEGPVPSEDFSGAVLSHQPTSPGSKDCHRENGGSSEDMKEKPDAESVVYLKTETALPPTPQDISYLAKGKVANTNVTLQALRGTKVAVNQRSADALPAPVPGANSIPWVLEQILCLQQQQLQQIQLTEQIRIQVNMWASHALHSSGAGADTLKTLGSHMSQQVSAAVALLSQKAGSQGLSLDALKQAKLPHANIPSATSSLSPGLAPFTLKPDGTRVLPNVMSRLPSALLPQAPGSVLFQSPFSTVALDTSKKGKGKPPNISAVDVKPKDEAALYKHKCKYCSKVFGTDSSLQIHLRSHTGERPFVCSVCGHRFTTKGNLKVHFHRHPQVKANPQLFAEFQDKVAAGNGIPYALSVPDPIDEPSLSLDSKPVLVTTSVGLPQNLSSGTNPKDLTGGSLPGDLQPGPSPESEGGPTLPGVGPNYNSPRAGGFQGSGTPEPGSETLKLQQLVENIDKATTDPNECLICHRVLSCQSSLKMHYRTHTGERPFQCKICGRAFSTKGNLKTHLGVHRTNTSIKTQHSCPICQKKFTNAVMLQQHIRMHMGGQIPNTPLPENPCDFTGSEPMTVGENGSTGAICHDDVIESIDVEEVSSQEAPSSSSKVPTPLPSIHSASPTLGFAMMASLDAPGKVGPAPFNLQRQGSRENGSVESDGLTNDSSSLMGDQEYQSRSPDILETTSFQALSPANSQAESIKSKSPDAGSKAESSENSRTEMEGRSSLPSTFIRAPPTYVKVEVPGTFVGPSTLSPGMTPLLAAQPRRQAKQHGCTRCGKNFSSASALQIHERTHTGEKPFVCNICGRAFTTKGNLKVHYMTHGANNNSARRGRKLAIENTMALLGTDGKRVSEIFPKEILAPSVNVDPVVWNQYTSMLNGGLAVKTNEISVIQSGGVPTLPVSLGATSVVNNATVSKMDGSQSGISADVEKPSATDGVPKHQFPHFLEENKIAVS
# Technique: universal PBM
# Form: double-stranded DNA, one strand shown
# Matrix: in vitro
# Tested at: 600 nM
# Setting: 8-mer, flanks averaged, mean of replicates
# Reading: higher = stronger binding
Strand,E-score
ACTCATTC,0.15
ACCTGGAA,0.118
AGGATAGG,-0.11
CTTCATAA,0.372
AGGCGCTG,-0.162
GGAACGAC,-0.139
CAACCAAG,-0.00291
AAGATTTG,0.124
CTGTACCA,-0.124
GGAGCGCA,-0.335
CCATGTGC,-0.141
CGACGCGC,-0.222

# Set 6
# Target: Centromere-binding protein 1, full length, His-tagged (CBF1, Saccharomyces cerevisiae, UniProt P17106, residues 1-351)
# Chain of UniProt P17106 (whole entry, looked up): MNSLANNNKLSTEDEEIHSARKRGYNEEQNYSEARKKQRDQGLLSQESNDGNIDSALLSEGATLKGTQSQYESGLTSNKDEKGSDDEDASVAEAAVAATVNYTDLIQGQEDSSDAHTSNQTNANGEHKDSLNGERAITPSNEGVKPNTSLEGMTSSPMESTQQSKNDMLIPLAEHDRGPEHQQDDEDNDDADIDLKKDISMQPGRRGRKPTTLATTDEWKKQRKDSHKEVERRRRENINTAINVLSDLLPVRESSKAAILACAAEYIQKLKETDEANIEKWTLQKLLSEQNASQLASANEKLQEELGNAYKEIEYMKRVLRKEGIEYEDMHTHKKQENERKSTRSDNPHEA
# Technique: competition protein-binding microarray
# Form: double-stranded DNA, one strand shown
# Matrix: in vitro
# Tested at: 2 µM
# Setting: whole 60-bp probe, lowest competitor level
# Together with: Pho4 competitor, 0.05 µM
# Reading: higher = stronger binding
Strand,fluorescence intensity [a.u.]
CTTTCCCGATCTTGGAGCGTGGGTGTAGCACATTTGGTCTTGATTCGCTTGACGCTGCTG,66.9
GACCGAACGCCCAACATAAATTAGAATAAGTCGTCAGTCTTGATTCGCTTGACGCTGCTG,62.2
AAAGCGGTAATTTGATAAGTGGGTGCAGATATCTATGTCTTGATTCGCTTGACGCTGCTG,89.6
GTCTTGTCTCATTGCGGGGTGGGTGTCCCCACTTCAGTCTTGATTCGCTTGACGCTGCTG,75
CTAAAAGTGCATTACGACCTGCATCTCCAGTAGTTTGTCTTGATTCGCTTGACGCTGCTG,66.1
TGCGCAACAACTTGCTATGTGGGTGTATGTCTAGAAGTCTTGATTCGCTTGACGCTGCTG,67.1
AAATTACTAAGTTTTCACGTGGAATACCCCGTATGAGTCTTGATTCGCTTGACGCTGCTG,428
CTTCTGTAAATTTGAACGGTGGGTGGACGCGCCCCGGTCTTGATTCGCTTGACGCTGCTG,80.7
TGAGGAGAACGATTGTTCGTGCCAGTGGCAATGGAAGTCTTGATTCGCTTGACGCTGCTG,61.1
AGCCGGCTATTTACCCACGTCCGGTATCTCAAAGGAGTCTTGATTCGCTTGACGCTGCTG,55.5
CATACCCAACCTTGGCGCGTGGGTGAAGATATTTGTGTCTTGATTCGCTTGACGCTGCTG,78.6
AAAAAATAAGCTTTTCTCGTGCCGAGAGTGGTGTACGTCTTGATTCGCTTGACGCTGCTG,126
CATACCCAACCTTGAACTGTGGGTGAAGATATTTGTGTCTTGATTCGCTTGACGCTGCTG,63.2
GCAACGCCCCCTTCCCACGTGGTCTTCTCCCTCTCCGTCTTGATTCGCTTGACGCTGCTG,1140
CAATAGGGGAAAGCATTCGTGATGGAGACGTATATAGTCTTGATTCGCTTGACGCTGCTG,87.2
GAAACCAGATTTTGAGGCGTGCTTTGCAACTGTGAAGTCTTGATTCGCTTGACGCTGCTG,81.8
TGCGCAACAACTTGTCCCGTGGGTGTATGTCTAGAAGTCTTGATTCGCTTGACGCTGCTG,95.6
TACCTGGGCATCCATCACGCTTCAGCCGCTCTGTGTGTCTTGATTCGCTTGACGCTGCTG,76.3

# Set 7
# Target: Prothrombin, mature alpha-thrombin (F2, Homo sapiens, UniProt P00734)
# Technique: aptamer microarray, sandwich
# Form: DNA with 2'F-ANA
# Matrix: in vitro
# Tested at: 200 nM
# Setting: whole 15-mer aptamer, many near background
# Together with: Cy3 exosite-II aptamer, 400 nM
# Reading: higher = stronger binding
# Strand: GGTTGGTGTGGTTGG
Modification,mean fluorescence intensity [a.u.]
2'F-ANA at 2 4 7 8 9 10,252
2'F-ANA at 2 6 8 9 11 12,526
2'F-ANA at 2 3 6 9 10 12 13 14,247
2'F-ANA at 1 2 5 6 10 11 14,42.5
2'F-ANA at 2 4 5 6 7 9 10 14,58.6
2'F-ANA at 1 2 3 4 7 10 12 13 14 15,60.2
2'F-ANA at 1 2 3 6 8 11 12 13 14 15,86.5
2'F-ANA at 1 3 6 8 10 15,83.1
2'F-ANA at 2 6 7 8 12 14,227
2'F-ANA at 1 4 6 12 13 15,198
2'F-ANA at 4 8 9 15,354
2'F-ANA at 3 6 7 8 11 14,571
2'F-ANA at 2 4 7 8 9 10 11 12 13 15,90.6
2'F-ANA at 2 5 6 7 8 9 14,136
2'F-ANA at 2 3 4 6 7 8 11 13 15,364
2'F-ANA at 1 2 3 5 7 11 12 14 15,49.2
2'F-ANA at 2 4 8 9 10,95.4
2'F-ANA at 3 6 8 10 11 12,460
